Measurements pooled from the literature.
± gives the spread as reported. In brackets after ≈: the same amount, converted by molar mass.

Cc1cc(OC(C)C)ccc1C(=O)C(C)(C)NC(=O)c1sccc1C
inhibition (Botrytis cinerea; germ tube elongation; B05.10; 1 µg/mL): 95.8 ± 4.4%

CN[C@H](CC(C)C)C(=O)N[C@H]1C(=O)N[C@@H](CC(N)=O)C(=O)N[C@H]2C(=O)N[C@H]3C(=O)N[C@H](C(=O)N[C@H](C(=O)O)c4cc(O)cc(O)c4-c4cc3ccc4O)[C@H](O)c3ccc(c(Cl)c3)Oc3cc2cc(c3O[C@@H]2O[C@H](CO)[C@@H](O)[C@H](O)[C@H]2O[C@H]2C[C@](C)(N)[C@H](O)[C@H](C)O2)Oc2ccc(cc2Cl)[C@H]1O
MIC50 (Enterococcus faecalis; compound-intermediate; pH 8.5): 4 µg/mL (≈ 2.76 µM)

CC(=O)N(C)[C@H]1CCN(C(=O)c2cnc3c(c2)C[C@](C)(c2ccc(F)cc2)N3)C1
pantetheine increase (vanin activity; LC-MS/MS; human, plasma; 15 mg, 4 h post-dose, median; reference: baseline): 1250%

CC(=O)NC[C@H]1CN(c2ccc(N3CCOCC3)c(F)c2)C(=O)O1
MIC90 (Enterococcus faecalis; agar dilution; vancomycin-susceptible): 2 µg/mL (≈ 5.93 µM)

Cc1nc2[nH]c(=O)n(O)c(=O)c2s1
root length inhibition (Brassica rapa; 100 mg/mL, 72 h): 95%

Oc1ccccc1-c1n[nH]cc1-c1ccnc2ccccc12
log2 fold change (HRK1 (Candida albicans); kinase binding, MIB/MS competition; Candida albicans lysate; 10 µM; reference: DMSO): 0.17

OC(CCN1CCCCC1)(c1ccccc1)C1CC2C=CC1C2 (stereo not drawn)
EEG Beta2-power Fz-Cz (resting-state EEG; healthy elderly humans; oral, 2 mg, eyes open, LS mean): 0.9 µV²

Cn1cc(-c2ccc(-c3cncc(Cl)c3N3CCC4(CCNC4=O)CC3)cc2)cn1
log2 fold change (COLO 205; gene expression, microarray, item: EFNA3 mRNA; concentration not given, 6 h; reference: untreated cells): 1.24

c1coc(-c2n[nH]cc2-c2ccnc3ccccc23)c1
log2 fold change (orf19.4575 Candida albicans; kinase binding, MIB/MS competition; Candida albicans lysate; 10 µM; reference: DMSO): -0.14

For quick reference, copied from above:
CC(=O)N(C)[C@H]1CCN(C(=O)c2cnc3c(c2)C[C@](C)(c2ccc(F)cc2)N3)C1
pantetheine increase (vanin activity; LC-MS/MS; human, plasma; 15 mg, 4 h post-dose, median; reference: baseline): 1250%
